Results from different studies.
Each line is one published result; not all experiments were run side by side. ± marks the error that the study gave.

| SMILES | target or system | assay | system | setting | how to read | quantity | result |
| --- | --- | --- | --- | --- | --- | --- | --- |
| COc1ccc(N)cc1-c1c[nH]c2ncc(-c3cncc(C(=O)N(C)C)c3)cc12 | Ba/F3 BCR-ABL T315I | cell proliferation |  | 72 h |  | GI50 | 0.157 ± 0.0517 µM |
| CCCCc1n(Cc2ccc3ccccc3n2)cc[n+]1Cc1ccc2ccccc2n1 | NCI60 NSCLC cell lines | cell growth |  |  |  | GI50 | ≤ 12.5 µM |
| Cc1c(C(=O)O)ccc2c3n(nc12)[C@@H]1[C@H](C3)N(CC2CC2)[C@@]2(C(=O)Nc3cc(Cl)ccc32)[C@H]1c1cccc(Cl)c1F | DK-MG (MDM2-amplified) | cell growth, alamarBlue |  | 120 h |  | GI50 | 0.003 µM |
| Cc1n(Cc2ccc3ccccc3n2)cc[n+]1Cc1ccc2ccccc2c1 | NCI60 NSCLC cell lines | cell growth |  |  |  | GI50 | ≤ 3.93 µM |
| CN(C)C(=O)c1cncc(-c2cnc3[nH]cc(-c4ccccc4C#N)c3c2)c1 | Ba/F3 BCR-ABL T315I | cell proliferation |  | 72 h |  | GI50 | > 1 µM |
| CC(C)C[C@H](NC(=O)C[C@H](O)[C@H](CC(C)C)NC(=O)[C@H](Cc1c[nH]cn1)NC(=O)CNC(=O)[C@@H](NC(=O)[C@H](C)NC(=O)[C@H](Cc1c[nH]c2ccccc12)NC(=O)[C@H](CCC(N)=O)NC(=O)[C@@H](Cc1ccccc1)NC(=O)COCCOCCNC(=O)CCC(C(=O)O)N1CCN(CC(=O)O)CCN(CC(=O)O)CCN(CC(=O)O)CC1)C(C)C)C(N)=O (stereo partly shown) [lutetium-177 labelled] |  |  | female BALB/c nu/nu mice, blood | intravenous, 100 pmol, 2 h, with: PA 300 µg |  | tissue uptake | 0.08 ± 0.04 %ID/g |
| CCc1n(Cc2ccc3ccccc3n2)cc[n+]1Cc1ccc2ccccc2n1 | NCI60 NSCLC cell lines | cell growth |  |  |  | GI50 | ≤ 12.5 µM |
| COc1cc2nc(N3CCCN(C)CC3)nc(NC3CCN(Cc4ccccc4)CC3)c2cc1OC | OCI-Ly1 |  |  | 0.5 µM, 120 h |  | viability | 175% |
| C=CS(=O)(=O)Nc1ccc(OC)c(-c2c[nH]c3ncc(-c4cncc(C(=O)N(C)C)c4)cc23)c1 | Ba/F3 BCR-ABL T315I | cell proliferation |  | 72 h |  | GI50 | > 1 µM |
| NC(=O)c1cnc2[nH]ccc2c1N[C@@H]1[C@@H]2CC3C[C@H]1C[C@@](O)(C3)C2 |  | CD8+ effector T cells, flow cytometry | Japanese humans, peripheral blood | 20 mg single dose | baseline: baseline | percent change | 0.42% |
| Cn1cc(-c2ccc(-c3cncc(Cl)c3N3CCC4(CCNC4=O)CC3)cc2)cn1 | COLO 205 | gene expression, microarray, refers to: ARHGEF2 mRNA |  | concentration not given, 6 h | baseline: untreated cells | log2 fold change | 1.22 |
| O=C(/C=C/C=C/C=C/C1CCCCC1)NC1=C[C@@](O)(/C=C/C=C/C=C/C(=O)NC2=C(O)CCC2=O)[C@@H]2O[C@@H]2C1=O | OVSAHO | cell growth, CellTiter-Glo |  | 78 h |  | GI50 | 12.3 µM |
| C=CC(=O)N1CCC[C@@H](n2nc(-c3ccc(Oc4ccccc4)cc3)c3c(N)ncnc32)C1 | REC-IKZF1^KO | cell growth |  | 72 h |  | GI50 | 16.3 µM |

Excerpt of the above:
| SMILES | target or system | assay | system | setting | how to read | quantity | result |
| --- | --- | --- | --- | --- | --- | --- | --- |
| O=C(/C=C/C=C/C=C/C1CCCCC1)NC1=C[C@@](O)(/C=C/C=C/C=C/C(=O)NC2=C(O)CCC2=O)[C@@H]2O[C@@H]2C1=O | OVSAHO | cell growth, CellTiter-Glo |  | 78 h |  | GI50 | 12.3 µM |
